Measured values from different studies.
Numbered parts are unrelated; each lists some results of a single study.

Study 1 — technique: universal PBM; molecule type: double-stranded DNA, one strand shown; matrix: in vitro; concentration: not given; direction: higher = stronger binding
Target: Sal-like protein 4, full length isoform B (SALL4, Homo sapiens, UniProt Q9UJQ4-2, residues 1-616)
Notes: 8-mer, flanks averaged, mean of replicates
Construct (chain): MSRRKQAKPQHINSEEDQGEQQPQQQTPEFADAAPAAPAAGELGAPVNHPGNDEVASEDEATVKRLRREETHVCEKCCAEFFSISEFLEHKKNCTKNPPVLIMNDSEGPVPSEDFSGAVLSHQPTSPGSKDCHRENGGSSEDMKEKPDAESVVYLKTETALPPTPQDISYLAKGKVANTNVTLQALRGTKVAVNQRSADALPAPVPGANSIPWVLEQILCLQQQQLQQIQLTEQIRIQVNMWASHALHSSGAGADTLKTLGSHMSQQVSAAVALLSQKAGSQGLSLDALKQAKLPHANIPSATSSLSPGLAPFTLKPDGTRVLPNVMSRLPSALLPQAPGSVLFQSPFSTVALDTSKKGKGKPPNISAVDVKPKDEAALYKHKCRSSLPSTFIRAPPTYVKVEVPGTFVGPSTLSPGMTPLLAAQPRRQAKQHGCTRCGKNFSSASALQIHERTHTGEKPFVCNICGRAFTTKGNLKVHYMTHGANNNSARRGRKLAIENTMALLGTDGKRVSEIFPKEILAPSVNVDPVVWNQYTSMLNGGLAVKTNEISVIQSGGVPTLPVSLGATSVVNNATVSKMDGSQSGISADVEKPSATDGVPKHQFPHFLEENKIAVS
With `CCCTCGAC` the E-score was -0.253.
`AGCGCAAG` gave an E-score of -0.141.
The E-score of `GGACCCCA` is reported as -0.298.
`GATCGGCA` gave an E-score of -0.062.
With `CGCGTGAG` the E-score was -0.08.
`GAAATGGC` has an E-score of -0.0309.
`GAAGATAA` gave an E-score of 0.256.
For `GGTCGAGA`, the E-score was -0.222.
For `ACGGGAGC`, the E-score was -0.27.
`CAACCGAG` gave an E-score of -0.174.
For `TCCAACCA`, the E-score was -0.0544.
The E-score of `CATCAAGG` is reported as -0.066.
The E-score of `AACACCAA` is reported as 0.149.
The E-score of `CGGAGTAC` is reported as -0.22.
With `GTATCAAC` the E-score was -0.00305.
`AATCCAGA` gave an E-score of 0.236.
`AGACAAAA` gave an E-score of 0.115.
For `GTGTAAAA`, the E-score was 0.248.
`CAGGTACG` gave an E-score of -0.204.
`CGCGGCCC` gave an E-score of -0.403.
`CTCACCTA` has an E-score of 0.157.

Study 2 — technique: RNA Bind-n-Seq; molecule type: RNA; matrix: in vitro; concentration: not given; notes: RNA with constant flanks, ends assumed; baseline: input RNA pool; direction: higher = stronger binding
Target: RING finger protein unkempt homolog, zinc fingers 1-6, GST-SBP tag (UNK, Homo sapiens, UniProt Q9C0B0, residues 30-357)
Sequence of UniProt Q9C0B0 (30-357, looked up): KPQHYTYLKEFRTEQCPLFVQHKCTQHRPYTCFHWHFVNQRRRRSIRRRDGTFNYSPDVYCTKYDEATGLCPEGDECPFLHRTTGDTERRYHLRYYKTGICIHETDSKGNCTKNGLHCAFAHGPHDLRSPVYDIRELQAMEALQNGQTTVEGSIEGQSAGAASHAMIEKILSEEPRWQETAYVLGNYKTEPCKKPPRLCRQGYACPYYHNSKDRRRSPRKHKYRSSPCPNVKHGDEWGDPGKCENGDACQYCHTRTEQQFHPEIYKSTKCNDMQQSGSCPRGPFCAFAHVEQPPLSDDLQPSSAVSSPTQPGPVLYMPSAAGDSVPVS
Constant ends, left off below: GGGAGUUCUACAGUCCGACGAUC … CAACAGAGGAUUGAGCAUCA
`UCGGAGCUAUGCGGUGGUGCUAGAAUUUGUUAUAUUUUCCAUGAGACUUUUGGGCGAACCUCCGAAUCUGUUGAUCCACUUGGUGGCCUUAACACUAUUGACAUUUUGACUGCCAUUAGA` gave a bound/input enrichment of 1.27 ratio.
The bound/input enrichment of `GAGAAAUACUUCCAAUUCCAAGAAGAGGGCAAAGAAGGAGAGAACAGAGCAGUUAUCCAUUACCGGGAUGAUGAGACCAUGUAUGUGGAAUCUAAGAAAGACAGAGUCACAGUAGUCUUC` is reported as 0.382 ratio.
For `UACAAGUAUUUUAAUUUAAGUUCAGUGAACUUUUUUGUAGCUGGGUUAAAUCUUUUUAUUUUCCGUAUGGCCUUAUGGCAAAGAACACUGUAUUAUUUUAAUAAUCACACGAUUGUGACG`, the bound/input enrichment was 0.555 ratio.
`GAUACUGGUAAACUGACUGGCGGAUCAUUUACCAUGAAAUACCAUGAUAUGCCUGACGUUACCGAUUUCCUAGUCUUGAGACAACAAUUUGAUGAUGCAAAAUACAGGCGAUGGAAUAUA` gave a bound/input enrichment of 0.282 ratio.
For `GUUCCCCUGUUGCUAAAUAAUGUGAAAGGGGAGCCCCCGGAGGACUCGUUAUCUGCCGAUCACUUCCAAACACAAACUGAGCCAGUGGACUUGUCAAUAAACAAAGCCAGGACGUCCCCU`, the bound/input enrichment was 0.179 ratio.
`GGGUCCUGCAGGAAGCAGUGUUCUCCUUGGUGCCCGGGGAAACCUCCCAUGUCUGUUUCCUACCGGCCACUUGUUCCUCACGACCAUCCGGCCUGACAAUCAGAAUUCCUAUCUCAUUGC` gave a bound/input enrichment of 0.191 ratio.
For `GGGAAGAAAUUCGGCAGUGAAUGAAGAUUCCUCUGCAUUUUAGCAUUGCUUUUUCUACUGCCGUUGGCUUUUGAAUGAGGAUGACAAUGGAAGAGAUGAAGAAUGAAGCUGAGACCACUU`, the bound/input enrichment was 0.334 ratio.
`AGGUUACUUAUGCAUCAUAUCAGAGAUUGUUUACCAGAGCUGAAAACAAGAAUAAAUGUCUCCGCUGCUCAGUAUCAGUCUCUUCUAAAUAGCUAUGGUGAACCGGUGGAUGAUAAAAGU` has a bound/input enrichment of 0.107 ratio.
`GGCAGUGGCUGGGGAGGUGAGGGAGGGGGGGCAUUCGCUUUUGGGGGCACCUCAGGUGCCCCGGUUUUCCUUUAGGUUUGUUCUAUCCGAGACGCGGGACUCCCGGGGCCCGGCUCAAGU` gave a bound/input enrichment of 6 ratio.
With `CUAGGCCAAUUCUGCUUCUCCAUCCCAAAGGAAGAAAAUUUGCCUUCCUUUGCCGACCCUCCGCAGGAAAGCAAAAUUAAAGGAAAAGAUAAAAGGACGCAGAGGGAAAGUGACAGCGAG` the bound/input enrichment was 0.47 ratio.
`ACUAUUGUUAAAAUGAACUGUUGCUAUUGUGAGAUGGAUUUCCUUUCGAAUGGCACUACCUCCGGGACAUUCUAGUAUUGCUUCUAUUGUUUGGGCAUUGUGGAUAAUGUACAGAUUUAA` gave a bound/input enrichment of 0.166 ratio.

Study 3 — technique: protein binding microarray; molecule type: double-stranded DNA, one strand shown; matrix: in vitro; concentration: not given; baseline: not given; direction: higher = stronger binding
Target: Histone acetyltransferase KAT6A, both winged helices, GST fusion (KAT6A, Homo sapiens, UniProt Q92794, residues 1-181)
Notes: 8-mer, flanks averaged, mean of 2 arrays, mostly near background
Target sequence (chain): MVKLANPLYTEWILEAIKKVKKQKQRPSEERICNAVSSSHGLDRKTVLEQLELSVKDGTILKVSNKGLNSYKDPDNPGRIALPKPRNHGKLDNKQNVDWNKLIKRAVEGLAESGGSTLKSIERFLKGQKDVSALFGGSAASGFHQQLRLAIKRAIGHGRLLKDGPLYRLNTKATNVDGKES
With `ACTCGCAG` the E-score was -0.0299.
`AAAGGTTA` gave an E-score of -0.0679.
With `GAGTTAGC` the E-score was -0.132.
With `GTACGGCA` the E-score was 0.304.
The E-score of `CCAGACAG` is reported as -0.224.
`AGCTGCAT` has an E-score of -0.0703.
`ATCCAGAT` gave an E-score of -0.102.
The E-score of `ACATTGTG` is reported as -0.0877.
The E-score of `CGGATTAG` is reported as 0.193.
For `CAAGTATC`, the E-score was -0.182.
With `CATTCCGG` the E-score was 0.113.
The E-score of `AGAGGCAT` is reported as -0.0391.
For `AAGAGACT`, the E-score was -0.153.
`AGAAGCAG` gave an E-score of -0.245.
For `GAAGTCCA`, the E-score was -0.102.
`GCACTTTA` gave an E-score of -0.0314.
The E-score of `TATGCAAA` is reported as -0.151.
For `AAAGGGAA`, the E-score was -0.0758.
With `GAAAAGGC` the E-score was -0.0123.
`ATGGGCAC` gave an E-score of -0.024.
For `ACGCCCTC`, the E-score was 0.173.
For `ATTCTTAG`, the E-score was -0.14.
With `GGTTGGAC` the E-score was -0.0545.
The E-score of `CGACACCA` is reported as 0.0429.
`AGATTCAT` has an E-score of -0.131.

Study 4 — technique: protein-binding microarray; molecule type: double-stranded DNA, one strand shown; matrix: in vitro; concentration: 2200 nM top; notes: 60-bp whole probe; added: salmon DNA 0.4 mg/ml; baseline: random background probes; direction: higher = stronger binding; constant ends, left off below: GCCTAGCAC … GTCTTGATTCGCTTGACGCTGCTG
Target: Interferon regulatory factor 7, full length, phosphomimetic (IRF7, Homo sapiens, UniProt Q92985, residues 1-503, S471D/S472D/S475D/S476D/S477D/S483D/S484D/S487D)
Sequence of UniProt Q92985 (whole entry, unmodified, looked up): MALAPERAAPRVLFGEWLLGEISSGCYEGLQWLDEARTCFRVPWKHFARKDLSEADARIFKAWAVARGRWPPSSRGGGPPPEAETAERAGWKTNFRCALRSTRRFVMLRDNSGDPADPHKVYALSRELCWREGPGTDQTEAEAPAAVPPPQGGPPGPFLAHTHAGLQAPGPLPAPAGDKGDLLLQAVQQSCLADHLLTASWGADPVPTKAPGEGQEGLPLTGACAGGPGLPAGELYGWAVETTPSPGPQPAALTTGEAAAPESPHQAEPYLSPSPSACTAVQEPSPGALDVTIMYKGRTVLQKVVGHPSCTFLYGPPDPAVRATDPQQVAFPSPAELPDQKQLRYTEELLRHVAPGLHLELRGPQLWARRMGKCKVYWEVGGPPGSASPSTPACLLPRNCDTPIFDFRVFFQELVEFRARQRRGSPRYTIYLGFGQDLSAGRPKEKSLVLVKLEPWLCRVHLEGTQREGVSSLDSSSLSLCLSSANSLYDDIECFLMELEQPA
`GACGAACTGAGTCTCGGGACGTGCTAG`: “fitted relative affinity” -0.297 z-score.
Under “fitted relative affinity”, `TCAACACTAATTTTCATACTGTGCTAG` is recorded as 1.15 z-score.
`GACGATTTGAGTCTCGAGACGTGCTAG`: “fitted relative affinity” 0.415 z-score.
`AAGTTTCTCCTTTCGGAATAGTGCTAG`: “fitted relative affinity” 5.52 z-score.
`GACGATTTCAGTTACGAGACGTGCTAG` — result for “fitted relative affinity”: 0.997 z-score.
Under “fitted relative affinity”, `TTAGATTCCAGTTTCGATTCGTGCTAG` is recorded as 12.4 z-score.
Under “fitted relative affinity”, `GACCTTCACCTCTCTGTCCCCGTGCTA` is recorded as 1.45 z-score.
For `TCCTGGAGTCTATGCTGCTGGTGCTAG`, “fitted relative affinity” read -0.171 z-score.
Under “fitted relative affinity”, `GGCGATATCAGTATCGAGACGTGCTAG` is recorded as 0.0779 z-score.
For `TGTTTTTGCTTTCTTTATGTGTGCTAG`, “fitted relative affinity” read 4.76 z-score.
Under “fitted relative affinity”, `AGTTCTCTGAAGACTCTCTTGGTGCTA` is recorded as 0.297 z-score.
`TCACGTTTACATTTTCCACTGTGCTAG`: “fitted relative affinity” 2.82 z-score.
Under “fitted relative affinity”, `TTAGGTCTCCGTTTCCTTTAGTGCTAG` is recorded as 1.92 z-score.
`TTAGATATCGGGTATCGATCAGTGCTA`: “fitted relative affinity” 0.151 z-score.
For `TTTAGAAAGATTAGGGGTGCGTGCTAG`, “fitted relative affinity” read -0.347 z-score.
`TTAGATATCAGACCGGATTAGTGCTAG`: “fitted relative affinity” -0.115 z-score.
`GACGGTTTCAGTATCGAGACGTGCTAG`: “fitted relative affinity” 2.35 z-score.
`TCAACACTCACCATGGCACTGTGCTAG` — result for “fitted relative affinity”: 0.545 z-score.
Under “fitted relative affinity”, `TTAGGCTCCCTTTTCCTTTAGTGCTAG` is recorded as 1.62 z-score.
`TTAGGACTGGACTTTCGGTTTGTGCTA`: “fitted relative affinity” 11.1 z-score.
`TTAGGTATCGGAACTGGGTTAGTGCTA` — result for “fitted relative affinity”: -0.182 z-score.
`TCCCACAGTCGAAAGTCTGCGTGCTAG` — result for “fitted relative affinity”: 0.717 z-score.
Under “fitted relative affinity”, `TAATGGATATATATCATTTAGTGCTAG` is recorded as 0.25 z-score.
Under “fitted relative affinity”, `TTAGCTTCCAGTTTCGATTAGTGCTAG` is recorded as 6.41 z-score.

Repeated from above (study 1):
`CGCGGCCC` gave an E-score of -0.403.
The E-score of `AACACCAA` is reported as 0.149.
`GAAGATAA` gave an E-score of 0.256.
The E-score of `CATCAAGG` is reported as -0.066.
With `CCCTCGAC` the E-score was -0.253.
With `GTATCAAC` the E-score was -0.00305.
`CAACCGAG` gave an E-score of -0.174.
For `TCCAACCA`, the E-score was -0.0544.
